Results gathered from unrelated publications.
Lines come from different studies, so protocols differ. ± marks the error that the study gave.

`O=C1c2ccc(O)c(O)c2C(=O)N1Cc1ccc(F)c(Cl)c1` gave a CC50 of 5.4 ± 1.3 µM (HOS; ATPlite; 48 h).
The CC50 of `CC(C)CC(C)n1ccn2cc(C(=O)NCc3ccc(F)cc3F)c(=O)c(O)c2c1=O` (stereo not shown) is reported as greater than 250 µM (HOS; cell growth or viability; 48 h).
The CC50 of `OC[C@H]1O[C@@H](n2cnc3c(O)ncnc32)[C@H](F)[C@@H]1O` is reported as 109 µM (COLO 205; sulforhodamine B; 11 days, galactose medium).
For `CCOC(=O)CNC(=O)CN1C(=O)S/C(=C\c2ccc(OC)c(O)c2)C1=O`, the CC50 was greater than 100 µM (PMA-differentiated THP-1, Leishmania-infected; resazurin; 72 h).
`COC(=O)C(C)NC(=O)C1OC(OC2C(OC3CCC4(C)C(CCC5(C)C4C(=O)C=C4C6CC(C)(C(=O)O)CCC6(C)CCC45C)C3(C)C)OC(C(=O)NC(C)C(=O)OC)C(O)C2O)C(O)C(O)C1O` (stereo not shown) has a CC50 of 2000 µM (Raji; cell growth or viability, MTT; 72 h).
The CC50 of `OC[C@H]1[C@@H](O)[C@@H](O)CN1Cc1ccc(Br)cc1` is reported as greater than 200 µM (MRC-5; MTS; 72 h).
For `Nc1ccn([C@@H]2O[C@H](CO)[C@@H](O)[C@H]2F)c(=O)n1`, the CC50 was 40 µM (COLO 205; sulforhodamine B; 11 days, glucose medium).
`O=S(=O)(O)CCCCCCCCCCCSC[C@H]1O[C@@H]2O[C@H]3[C@H](O)[C@@H](O)[C@@H](O[C@H]4[C@H](O)[C@@H](O)[C@@H](O[C@H]5[C@H](O)[C@@H](O)[C@@H](O[C@H]6[C@H](O)[C@@H](O)[C@@H](O[C@H]7[C@H](O)[C@@H](O)[C@@H](O[C@H]8[C@H](O)[C@@H](O)[C@@H](O[C@H]1[C@H](O)[C@H]2O)O[C@@H]8CSCCCCCCCCCCCS(=O)(=O)O)O[C@@H]7CSCCCCCCCCCCCS(=O)(=O)O)O[C@@H]6CSCCCCCCCCCCCS(=O)(=O)O)O[C@@H]5CSCCCCCCCCCCCS(=O)(=O)O)O[C@@H]4CSCCCCCCCCCCCS(=O)(=O)O)O[C@@H]3CSCCCCCCCCCCCS(=O)(=O)O` has a CC50 of greater than 300 µg/mL (African green monkey cells; MTS; 24 (unit not given)).
`CCc1c(CC2CCCCC2)nc(SCC(=O)c2ccccc2)[nH]c1=O` gave a CC50 of greater than 200 µM (C8166; MTT; 3 days).
For `Nc1ncnc2c1ncn2[C@@H]1O[C@H](CO)[C@@H](O)[C@H]1F`, the CC50 was 121 µM (COLO 205; sulforhodamine B; 11 days, glucose medium).
The CC50 of `OC[C@H]1[C@@H](O)[C@@H](O)CN1CCc1ccccc1` is reported as greater than 200 µM (MRC-5; MTS; 72 h).
`COC(=O)C1(C)CCC2(C)CCC3(C)C(=CC(=O)C4C5(C)CCC(OC6OC(C(=O)NN)C(O)C(O)C6OC6OC(C(=O)NN)C(O)C(O)C6O)C(C)(C)C5CCC43C)C2C1` (stereo not shown) gave a CC50 of greater than 8000 µM (Raji; cell growth or viability, MTT; 72 h).
`CCN(Cc1cccc(S(=O)(=O)O)c1)c1ccc(C(=C2C=CC(=[N+](CC)Cc3cccc(S(=O)(=O)[O-])c3)C=C2)c2ccccc2)cc1` gave a CC50 of 259 ± 44.2 µM (CEMx174 5.25M7; 3 days).
The CC50 of `CC(C)CC(C)N1CCn2cc(C(=O)NCc3ccc(F)cc3F)c(=O)c(O)c2C1=O` (stereo not shown) is reported as greater than 250 µM (HOS; cell growth or viability; 48 h).
The CC50 of `CCOC(=O)C1NC(c2ccc[n+](C)c2)C23c4c5c6c7c8c9c(c%10c%11c2c2c4c4c%12c5c5c6c6c8c8c%13c9c9c%10c%10c%11c%11c2c2c4c4c%12c%12c5c5c6c8c6c8c%13c9c9c%10c%10c%11c2c2c4c4c%12c5c6c5c8c9c%10c2c45)C713` (stereo not shown) is reported as greater than 50 µM (Raji; cell growth or viability; 24 h).
`CC(C)CC(NC(=O)C1OC(OC2C(OC3CCC4(C)C(CCC5(C)C4C(=O)C=C4C6CC(C)(C(=O)NC(CC(C)C)C(=O)O)CCC6(C)CCC45C)C3(C)C)OC(C(=O)NC(CC(C)C)C(=O)O)C(O)C2O)C(O)C(O)C1O)C(=O)O` (stereo not shown) has a CC50 of 5000 µM (Raji; cell growth or viability, MTT; 72 h).
The CC50 of `O=c1ccn([C@@H]2O[C@H](CO)[C@@H](O)[C@H]2F)c(=O)[nH]1` is reported as greater than 250 µM (COLO 205; sulforhodamine B; 11 days, galactose medium).
With `CCCC[n+]1cccc(C2NC(C(=O)OCC)C34c5c6c7c8c9c%10c(c%11c%12c3c3c5c5c%13c6c6c7c7c9c9c%14c%10c%10c%11c%11c%12c%12c3c3c5c5c%13c%13c6c6c7c9c7c9c%14c%10c%10c%11c%11c%12c3c3c5c5c%13c6c7c6c9c%10c%11c3c56)C824)c1` (stereo not shown) the CC50 was greater than 25 µM (Ramos; cell growth or viability; 24 h).
With `CCC(NC(=O)CN1C(=O)N/C(=C\c2ccc(C)cc2)C1=O)C(=O)OC` (stereo not shown) the CC50 was 40.9 ± 8.96 µM (PMA-differentiated THP-1, Leishmania-infected; resazurin; 72 h).

Some of these lines once more:
`COC(=O)C1(C)CCC2(C)CCC3(C)C(=CC(=O)C4C5(C)CCC(OC6OC(C(=O)NN)C(O)C(O)C6OC6OC(C(=O)NN)C(O)C(O)C6O)C(C)(C)C5CCC43C)C2C1` (stereo not shown) gave a CC50 of greater than 8000 µM (Raji; cell growth or viability, MTT; 72 h).
`CCN(Cc1cccc(S(=O)(=O)O)c1)c1ccc(C(=C2C=CC(=[N+](CC)Cc3cccc(S(=O)(=O)[O-])c3)C=C2)c2ccccc2)cc1` gave a CC50 of 259 ± 44.2 µM (CEMx174 5.25M7; 3 days).
The CC50 of `CC(C)CC(C)N1CCn2cc(C(=O)NCc3ccc(F)cc3F)c(=O)c(O)c2C1=O` (stereo not shown) is reported as greater than 250 µM (HOS; cell growth or viability; 48 h).
